Results of several laboratories.
Compare with care: the assays were run in different laboratories. ± marks the error that the study gave.
FGFR3 isoform IIIc: FGFR3 isoform IIIc (unknown, UniProt Q61851)
Sequence of UniProt Q61851 (whole entry, looked up): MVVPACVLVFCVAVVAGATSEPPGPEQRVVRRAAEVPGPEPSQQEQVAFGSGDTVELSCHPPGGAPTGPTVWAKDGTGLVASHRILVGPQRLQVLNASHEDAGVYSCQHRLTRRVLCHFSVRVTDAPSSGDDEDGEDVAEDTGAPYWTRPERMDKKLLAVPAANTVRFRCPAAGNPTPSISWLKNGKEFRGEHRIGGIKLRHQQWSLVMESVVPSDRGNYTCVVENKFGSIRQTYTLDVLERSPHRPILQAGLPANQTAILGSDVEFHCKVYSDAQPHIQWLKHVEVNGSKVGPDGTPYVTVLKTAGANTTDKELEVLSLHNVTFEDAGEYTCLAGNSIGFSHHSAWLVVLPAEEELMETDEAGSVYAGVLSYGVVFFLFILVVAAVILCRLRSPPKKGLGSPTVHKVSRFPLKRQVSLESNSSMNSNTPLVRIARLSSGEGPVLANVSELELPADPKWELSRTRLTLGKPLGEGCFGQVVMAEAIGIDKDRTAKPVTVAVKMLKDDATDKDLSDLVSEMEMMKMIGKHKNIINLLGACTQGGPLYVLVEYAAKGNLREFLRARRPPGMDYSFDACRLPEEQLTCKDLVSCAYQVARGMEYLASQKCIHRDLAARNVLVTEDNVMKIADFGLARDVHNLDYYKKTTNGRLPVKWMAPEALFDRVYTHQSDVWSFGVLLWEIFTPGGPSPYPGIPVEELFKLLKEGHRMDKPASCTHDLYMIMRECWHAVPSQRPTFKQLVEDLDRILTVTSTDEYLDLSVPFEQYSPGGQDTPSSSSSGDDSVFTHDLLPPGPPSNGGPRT
acpP C12-acylated: acpP C12-acylated 1-78, C12 acyl on 4'-phosphopantetheine (Escherichia coli, UniProt P0A6A8)
Sequence of UniProt P0A6A8 (whole entry, looked up): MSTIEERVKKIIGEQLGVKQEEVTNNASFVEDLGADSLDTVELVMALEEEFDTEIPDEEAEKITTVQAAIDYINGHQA
Rbpj: Rbpj 53-474 (Mus musculus, UniProt P31266)
Sequence of UniProt P31266 (whole entry, looked up): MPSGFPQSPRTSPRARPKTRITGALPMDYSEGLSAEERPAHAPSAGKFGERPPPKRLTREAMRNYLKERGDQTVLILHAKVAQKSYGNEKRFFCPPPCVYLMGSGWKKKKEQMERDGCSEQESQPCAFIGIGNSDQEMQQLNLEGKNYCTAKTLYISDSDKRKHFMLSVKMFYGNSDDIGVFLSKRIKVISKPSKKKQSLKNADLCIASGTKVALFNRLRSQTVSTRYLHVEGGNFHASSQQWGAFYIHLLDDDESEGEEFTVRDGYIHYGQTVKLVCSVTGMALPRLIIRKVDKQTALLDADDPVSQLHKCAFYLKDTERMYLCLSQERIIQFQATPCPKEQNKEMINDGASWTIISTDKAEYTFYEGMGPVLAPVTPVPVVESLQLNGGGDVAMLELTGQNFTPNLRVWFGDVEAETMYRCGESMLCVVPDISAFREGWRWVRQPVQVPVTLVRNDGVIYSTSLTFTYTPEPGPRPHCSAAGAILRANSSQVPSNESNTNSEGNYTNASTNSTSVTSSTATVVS
B1: FGF6 (Homo sapiens, UniProt P10767); chain SPAGTRANNTLLDSRGWGTLLSRSRAGLAGEIAGVNWESGYLVGIKRQRRLYCNVGIGFHLQVLPDGRISGTHEENPYSLLEISTVERGVVSLFGVRSALFVAMNSKGRLYATPSFQEECKFRETLLPNNYNAYESDLYQGTYIALSKYGRVKRGSKVSPIMTVTHFLPRI
B2: KLRK1 (Homo sapiens, UniProt P26718); sequence looked up; chain MGWIRGRRSRHSWEMSEFHNYNLDLKKSDFSTRWQKQRCPVVKSKCRENASPFFFCCFIAVAMGIRFIIMVTIWSAVFLNSLFNQEVQIPLTESYCGPCPKNWICYKNNCYQFFDESKNWYESQASCMSQNASLLKVYSKEDQDLLKLVKSYHWMGLVHIPTNGSWQWEDGSILSPNLLTIIEMQKGDCALYASSFKGYIENCSTPNTYICMQRTV
B3: TIMP3 24-144 (Homo sapiens, UniProt P35625); sequence looked up; chain CTCSPSHPQDAFCNSDIVIRAKVVGKKLVKEGPFGTLVYTIKQMKMYRGFTKMPHVQYIHTEASESLCGLKLEVNKYQYLLTGRVYDGKMYTGLCNFVERWDQLTLSQRKGLNYRYHLGCN
B4: RAD30 (Saccharomyces cerevisiae, UniProt Q04049); sequence looked up; chain MSKFTWKELIQLGSPSKAYESSLACIAHIDMNAFFAQVEQMRCGLSKEDPVVCVQWNSIIAVSYAARKYGISRMDTIQEALKKCSNLIPIHTAVFKKGEDFWQYHDGCGSWVQDPAKQISVEDHKVSLEPYRRESRKALKIFKSACDLVERASIDEVFLDLGRICFNMLMFDNEYELTGDLKLKDALSNIREAFIGGNYDINSHLPLIPEKIKSLKFEGDVFNPEGRDLITDWDDVILALGSQVCKGIRDSIKDILGYTTSCGLSSTKNVCKLASNYKKPDAQTIVKNDCLLDFLDCGKFEITSFWTLGGVLGKELIDVLDLPHENSIKHIRETWPDNAGQLKEFLDAKVKQSDYDRSTSNIDPLKTADLAEKLFKLSRGRYGLPLSSRPVVKSMMSNKNLRGKSCNSIVDCISWLEVFCAELTSRIQDLEQEYNKIVIPRTVSISLKTKSYEVYRKSGPVAYKGINFQSHELLKVGIKFVTDLDIKGKNKSYYPLTKLSMTITNFDIIDLQKTVVDMFGNQVHTFKSSAGKEDEEKTTSSKADEKTPKLECCKYQVTFTDQKALQEHADYHLALKLSEGLNGAEESSKNLSFGEKRLLFSRKRPNSQHTATPQKKQVTSSKNILSFFTRKK
B5: JAK1 35-559 (Homo sapiens, UniProt P23458); sequence looked up; chain GVEVIFYLSDREPLRLGSGEYTAEELCIRAAQACRISPLCHNLFALYDENTKLWYAPNRTITVDDKMSLRLHYRMRFYFTNWHGTNDNEQSVWRHSPKKQKNGYEKKKIPDATPLLDASSLEYLFAQGQYDLVKCLAPIRDPKTEQDGHDIENECLGMAVLAISHYAMMKKMQLPELPKDISYKRYIPETLNKSIRQRNLLTRMRINNVFKDFLKEFNNKTICDSSVSTHDLKVKYLATLETLTKHYGAEIFETSMLLISSENEMNWFHSNDGGNVLYYEVMVTGNLGIQWRHKPNVVSVEKEKNKLKRKKLENKHKKDEEKNKIREEWNNFSYFPEITHIVIKESVVSINKQDNKKMELKLSSHEEALSFVSLVDGYFRLTADAHHYLCTDVAPPLIVHNIQNGCHGPICTEYAINKLRQEGSEEGMYVLRWSCTDFDNILMTVTCFEKSEQVQGAQKQFKNFQIEVQKGRYSLHGSDRSFPSLGDLMSHLKKQILRTDNISFMLKRCCQPKPREISNLLVATK
B6: Cdkn1b (Mus musculus, UniProt P46414); chain MSNVRVSNGSPSLERMDARQAEHPKPSACRNLFGPVNHEELTRDLEKHCRDMEEASQRKWNFDFQNHKPLEGRYEWQEVERGSLPEFYYRPPRPPKSACKVLAQESQDVSGSRQAVPLIGSQANSEDRHLVDQMPDSSDNPAGLAEQCPGMRKRPAAEDSSSQNKRANRTEENVSDGSPNAGTVEQTPKKPGLRRQT
Sequence of UniProt P70618 (whole entry, unmodified, looked up): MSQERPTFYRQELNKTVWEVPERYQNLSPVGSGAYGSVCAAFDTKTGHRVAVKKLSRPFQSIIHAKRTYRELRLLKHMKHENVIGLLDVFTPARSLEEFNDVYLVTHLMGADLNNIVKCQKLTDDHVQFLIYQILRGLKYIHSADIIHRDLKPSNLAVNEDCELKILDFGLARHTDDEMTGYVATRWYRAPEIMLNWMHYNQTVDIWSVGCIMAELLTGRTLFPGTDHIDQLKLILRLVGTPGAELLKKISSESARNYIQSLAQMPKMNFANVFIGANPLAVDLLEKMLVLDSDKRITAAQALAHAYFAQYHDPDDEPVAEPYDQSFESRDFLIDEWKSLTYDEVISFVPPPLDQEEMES
Sequence of UniProt P08253 (whole entry, unmodified, looked up): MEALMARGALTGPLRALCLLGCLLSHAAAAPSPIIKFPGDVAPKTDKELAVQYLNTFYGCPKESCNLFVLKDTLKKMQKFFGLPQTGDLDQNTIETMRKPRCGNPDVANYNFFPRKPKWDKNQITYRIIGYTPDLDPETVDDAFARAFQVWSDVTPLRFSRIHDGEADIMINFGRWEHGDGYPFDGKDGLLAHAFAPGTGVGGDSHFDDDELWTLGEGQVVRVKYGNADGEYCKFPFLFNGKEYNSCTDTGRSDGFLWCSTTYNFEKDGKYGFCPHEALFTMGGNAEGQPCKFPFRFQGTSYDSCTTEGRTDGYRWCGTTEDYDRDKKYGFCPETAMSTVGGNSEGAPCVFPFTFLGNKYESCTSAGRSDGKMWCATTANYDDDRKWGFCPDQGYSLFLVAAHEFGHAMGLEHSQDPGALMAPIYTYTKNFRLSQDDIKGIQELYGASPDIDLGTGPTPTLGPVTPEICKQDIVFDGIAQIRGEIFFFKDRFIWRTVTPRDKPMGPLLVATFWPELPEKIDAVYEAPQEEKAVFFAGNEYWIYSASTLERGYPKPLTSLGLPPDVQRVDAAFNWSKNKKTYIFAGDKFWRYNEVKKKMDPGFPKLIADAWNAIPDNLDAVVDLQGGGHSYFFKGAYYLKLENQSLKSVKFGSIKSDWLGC
Sequence of UniProt Q29983 (whole entry, looked up): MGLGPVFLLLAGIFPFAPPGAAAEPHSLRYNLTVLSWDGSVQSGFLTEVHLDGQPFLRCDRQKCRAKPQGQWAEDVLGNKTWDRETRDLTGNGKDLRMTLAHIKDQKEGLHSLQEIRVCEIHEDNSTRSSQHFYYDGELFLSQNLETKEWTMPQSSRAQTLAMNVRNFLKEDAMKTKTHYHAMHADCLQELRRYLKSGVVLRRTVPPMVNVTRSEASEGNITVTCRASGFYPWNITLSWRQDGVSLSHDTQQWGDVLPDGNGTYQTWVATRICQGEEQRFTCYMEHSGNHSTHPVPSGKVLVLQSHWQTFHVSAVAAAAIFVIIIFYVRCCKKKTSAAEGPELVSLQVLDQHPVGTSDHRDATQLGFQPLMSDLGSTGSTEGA
Sequence of UniProt Q61457 (whole entry, looked up): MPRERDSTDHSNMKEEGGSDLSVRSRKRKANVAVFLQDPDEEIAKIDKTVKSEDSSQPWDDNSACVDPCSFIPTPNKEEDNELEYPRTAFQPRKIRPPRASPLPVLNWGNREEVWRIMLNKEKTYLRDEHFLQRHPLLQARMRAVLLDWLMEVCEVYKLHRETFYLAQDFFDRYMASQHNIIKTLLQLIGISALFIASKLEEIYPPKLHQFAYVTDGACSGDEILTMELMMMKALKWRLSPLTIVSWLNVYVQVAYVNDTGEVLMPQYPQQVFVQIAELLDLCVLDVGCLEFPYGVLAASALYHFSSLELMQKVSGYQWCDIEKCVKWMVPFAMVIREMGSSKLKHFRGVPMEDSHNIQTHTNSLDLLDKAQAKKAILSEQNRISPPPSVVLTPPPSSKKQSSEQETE
Sequence of UniProt Q5SKM8 (whole entry, looked up): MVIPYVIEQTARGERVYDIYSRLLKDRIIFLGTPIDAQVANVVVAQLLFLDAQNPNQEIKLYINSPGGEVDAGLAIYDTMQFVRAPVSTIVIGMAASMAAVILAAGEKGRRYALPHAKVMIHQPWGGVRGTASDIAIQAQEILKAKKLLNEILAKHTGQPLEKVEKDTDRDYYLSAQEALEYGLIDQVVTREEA
Sequence of UniProt Q12798 (whole entry, unmodified, looked up): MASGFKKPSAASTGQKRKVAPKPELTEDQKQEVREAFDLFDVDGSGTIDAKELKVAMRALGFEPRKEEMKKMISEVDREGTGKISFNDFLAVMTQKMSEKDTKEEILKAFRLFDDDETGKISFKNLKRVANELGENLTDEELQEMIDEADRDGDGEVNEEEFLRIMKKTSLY
Sequence of UniProt P12689 (whole entry, looked up): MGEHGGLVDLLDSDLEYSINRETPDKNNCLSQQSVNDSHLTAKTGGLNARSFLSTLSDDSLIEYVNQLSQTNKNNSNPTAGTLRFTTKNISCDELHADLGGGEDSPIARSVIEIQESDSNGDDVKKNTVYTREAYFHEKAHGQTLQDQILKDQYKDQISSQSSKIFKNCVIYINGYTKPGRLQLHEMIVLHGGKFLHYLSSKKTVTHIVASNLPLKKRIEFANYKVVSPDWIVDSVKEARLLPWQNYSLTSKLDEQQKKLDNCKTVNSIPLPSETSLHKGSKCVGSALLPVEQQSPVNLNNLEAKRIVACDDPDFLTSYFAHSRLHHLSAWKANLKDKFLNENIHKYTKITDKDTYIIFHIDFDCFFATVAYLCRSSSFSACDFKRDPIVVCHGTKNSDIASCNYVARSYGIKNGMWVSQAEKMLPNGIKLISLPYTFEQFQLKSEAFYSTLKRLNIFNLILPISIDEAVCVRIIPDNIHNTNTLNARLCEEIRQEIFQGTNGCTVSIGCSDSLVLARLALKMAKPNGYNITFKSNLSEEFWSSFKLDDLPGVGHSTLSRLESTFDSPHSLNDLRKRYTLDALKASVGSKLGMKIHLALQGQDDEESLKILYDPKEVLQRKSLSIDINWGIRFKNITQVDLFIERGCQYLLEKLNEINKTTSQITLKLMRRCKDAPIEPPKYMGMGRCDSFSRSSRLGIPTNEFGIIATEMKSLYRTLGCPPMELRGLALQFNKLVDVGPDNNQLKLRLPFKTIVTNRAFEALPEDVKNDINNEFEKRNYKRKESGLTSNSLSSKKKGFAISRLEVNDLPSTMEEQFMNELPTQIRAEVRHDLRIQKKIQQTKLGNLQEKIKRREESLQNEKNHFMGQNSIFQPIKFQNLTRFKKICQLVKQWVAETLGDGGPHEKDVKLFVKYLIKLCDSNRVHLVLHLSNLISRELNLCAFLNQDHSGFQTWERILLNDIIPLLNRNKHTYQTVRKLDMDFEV

| Substance | partner | assay | test system | conditions | how to read | quantity | result |
| --- | --- | --- | --- | --- | --- | --- | --- |
| EIWIAQELRXIGDXFNAYYA (BIM BH3 stapled peptide 145-164; N-terminal FITC-βAla, hydrocarbon staple S5 positions 10/14, C-terminal amide) | BFL-1 ΔC (Homo sapiens) | fluorescence polarisation | peptide | 20 min, together with: FITC-BIM SAHBA2 50 nM | – | EC75 | 200 nM |
| ARSPLLPVSVPTAPEVSEESHKPTEDSANVYEQDDLSEQMASLEGLMKQLNAITGSAF (DCC 1390-1447 (Homo sapiens, UniProt P43146); sequence looked up) | MYO10 MyTH4-FERM 1486-2058 del1872-1891 (Homo sapiens, UniProt Q9HD67) | SEC and AUC | peptide | – | – | molecule per partner | 1 |
| FGF8b (Homo sapiens) | FGFR3 isoform IIIc | cell proliferation, MTT | BaF3-FGFR3c | 20 nM, 48 h, together with: chondroitin sulfate A 4.9 µg/mL | reference: FGF 1 with heparin, higher = more proliferation | cell proliferation | 29% |
| fabF K65A/R68A/K69A (Escherichia coli) | acpP C12-acylated | holo-AcpP formation, HPLC | – | 10 µM, together with: malonyl-CoA | – | condensation rate | 0.13 min⁻¹ |
| B1 (FGF6) | FGFR3 isoform IIIc | cell proliferation, MTT | BaF3-FGFR3c | 20 nM, 48 h, together with: chondroitin sulfate D 4.9 µg/mL | reference: FGF 1 with heparin, higher = more proliferation | cell proliferation | 2% |
| B2 (KLRK1) | MICA extracellular domain 24-299 (Homo sapiens, UniProt Q29983) | micropipette adhesion frequency | – | 2D, in situ | – | koff | 4.36 s⁻¹ |
| clpX fragment (Thermus thermophilus) | clpP 1-194 (Thermus thermophilus, UniProt Q5SKM8) | peptidase activity, activator | – | together with: bortezomib 10 µM | – | half-maximal activation ratio | 2.4 ClpX6/ClpP14 ratio |
| MMP2 fragment R252A/F297A (Homo sapiens) | COL1A1/COL1A2 denatured, gelatin (Homo sapiens) | DQ-gelatin fluorescence | – | 10 nM, 25 °C | higher = faster hydrolysis | hydrolysis rate | 0.14 RFU/s |
| pasireotide, D-Trp, Tyr(4-Bzl) | SSTR1 (Homo sapiens, UniProt P30872) | cAMP inhibition, FRET Epac sensor | HEK 293T | – | – | pIC50 | 8 |
| TFPI (Homo sapiens, UniProt P10646-1) | F5 B-domain deleted 811-1490 R709Q/R1545Q (UniProt P12259) | prothrombinase activity | – | 10 nM, together with: UFH | higher = more reversal | reversal of inhibition | 50% |
| B3 (TIMP3 24-144) | ADAMTS4 213-519 (Homo sapiens, UniProt O75173) | inhibitor, steady-state kinetics | – | 1 h, pH 7.5, 37 °C | – | Ki | 0.64 nM |
| fabF F132A (Escherichia coli) | acpP C12-acylated | holo-AcpP formation, HPLC | – | 10 µM, together with: malonyl-CoA | – | condensation rate | 2.72 min⁻¹ |
| FGF1 (Homo sapiens, UniProt P05230) | FGFR3 isoform IIIc | cell proliferation, MTT | BaF3-FGFR3c | 20 nM, 48 h, together with: heparan sulfate 4.9 µg/mL | reference: FGF 1 with heparin, higher = more proliferation | cell proliferation | 47% |
| YAGRRKERPTSLNVFP (MAPK8IP3 D-site peptide (Homo sapiens)) | Mapk14 D315S/D316E/E317A, pT180, pY182 (Rattus norvegicus, UniProt P70618) | kinase activity, inhibitor, competitive kinase inhibition assay | peptide | together with: ATP 1 mM | – | IC50 | > 100000 nM |
| B4 (RAD30) | REV1, Cy5 label (Saccharomyces cerevisiae, UniProt P12689) | single-molecule TIRF | – | pH 7.5 | – | koff | 0.73 ± 0.02 s⁻¹ |
| B5 (JAK1 35-559) | IFNLR1 250-270 W257A (Homo sapiens, UniProt Q8IU57) | BLI | – | – | reference: wild type | fold reduction in binding | 3 fold |
| SUMO1 fragment H89E (Arabidopsis thaliana) | SAE2/SAE1a (Arabidopsis thaliana) | SUMO conjugation | – | 42 °C | reference: native AtSUMO1, higher = faster conjugation | SUMO conjugation rate | 90% |
| CGA/TSHB, 125I label (Bos taurus) | TSHR (Sus scrofa, UniProt Q8SPP9) | radioligand binding | solubilized porcine thyroid membrane | – | reference: normal pooled IgG, higher = more bound tracer | PEG-precipitable radioactivity | 7930 cpm |

| Substance | partner | assay | test system | conditions | how to read | quantity | result |
| --- | --- | --- | --- | --- | --- | --- | --- |
| TFPI endogenous, on cells (Homo sapiens, UniProt P10646) | F10 factor Xa | factor Xa inhibition | HUVEC | 100 µg/mL total protein, final, α-cyclodextrin | – | free factor Xa | 0.04 nM |
| protein 10-407 del142-163 (Drosophila melanogaster, UniProt Q8IML5) | Syx1A 1-267 L168A/E169A (Drosophila melanogaster, UniProt Q24547) | pull-down | – | together with: Ca2+-CaM | reference: before Ca2+-CaM, higher = more binding | binding increase | 2 fold |
| FGF8 (Homo sapiens, UniProt P55075) | FGFR3 isoform IIIc | cell proliferation, MTT | BaF3-FGFR3c | 20 nM, 48 h, together with: heparin 4.9 µg/mL | reference: FGF 1 with heparin, higher = more proliferation | cell proliferation | 110% |
| Ac-GRPCA-NH2 (PTX3 100-104 A100G, N-acetyl/C-terminal amide (Homo sapiens); N-acetyl/C-terminal amide) | FGF2 18 kD form (Homo sapiens) | cell proliferation, antagonist | peptide, GM7373 | 3-1000 µM, together with: FGF2 0.55 nM | – | ID50 | 15000 nM |
| TIMP2 N-terminal domain S4E/N38Q/V71N/H97R/T99S | MMP2 (Homo sapiens, UniProt P08253) | fluorogenic substrate cleavage, inhibitor, enzyme inhibition assay | – | apparent | – | Ki | 84 nM |
| FN1 intact plasma (Homo sapiens) | THBS1 fragment (Homo sapiens) | solid-phase binding | – | – | – | half saturation | 0.7 µg/mL |
| YAKRKRKKREKLILTL (WDR3 D-site peptide (Homo sapiens)) | Mapk14, pT180, pY182 (Rattus norvegicus, UniProt P70618) | kinase activity, inhibitor, competitive kinase inhibition assay | peptide | together with: ATP 1 mM | – | IC50 | 300 nM |
| B6 (Cdkn1b) | Ccne1 (Mus musculus, UniProt Q61457) | co-IP | NIH-3T3, not purified | – | reference: cells in monolayer, higher = more p21 bound | p21 in cyclin E complexes | 2 fold |
| KWDTANNPLYKEATSTFTNITYRGT (ITGB3 764-788 (Homo sapiens, UniProt P05106); sequence looked up) | Myom1 IgC2 domain 4 (Mus musculus) | ITC | peptide | pH 6.8, 25 °C, NaCl 50 mM | – | molecule per partner | 0.99 ± 0.1 |
| F8 A2 subunit D519V/E665V (Homo sapiens) | F8 A1/A3C1C2 dimer (Homo sapiens) | thrombin generation | FVIII-deficient plasma | 0.13 nM | – | endogenous thrombin potential | 1310 nM·min |
| Ac-NWKLLAKGLLIRERLKR-NH2 (XPC 847-863 (Homo sapiens); N-acetyl; C-terminal amide) | CETN1, phosphothreonine (Homo sapiens, UniProt Q12798) | ITC | peptide | – | – | ΔH | -30.4 kcal/mol |
| F8 A2 domain (human) | F8 A1 and A3C1C2 dimer, factor VIIIa S1787D | FXa generation activity loss | – | 1.5 nM, 23 °C | higher = faster decay | decay rate | 1.12 min⁻¹ |
| ITGAV/ITGB3 mature heterodimer (Homo sapiens) | FBN1 1486-1605 (Homo sapiens, UniProt P35555) | cell spreading | BHK | 1 µM | higher = more spread cells | cell spreading | 70% |
| MENAKKATATTTWMVPTAQ (L3MBTL3 52-70 V55A (Homo sapiens, UniProt Q96JM7-2); sequence looked up) | Rbpj | ITC | peptide | pH 6.5, 25 °C, NaCl 150 mM | – | ΔH | -13.6 kcal/mol |
| CDC48-B C-terminal 7 residues (Methanosarcina mazei) | 20S proteasome core particle (Methanosarcina mazei, UniProt Q8PTU1) | LFP hydrolysis, activator | – | 0.6 nM CP, 37 °C | reference: MmCP alone, higher = more hydrolysis | peptide hydrolysis | 1.5 fold |
| MEAVKKATATTTWMVPTAQ (L3MBTL3 52-70 N54A (Homo sapiens, UniProt Q96JM7-2); sequence looked up) | Rbpj | ITC | peptide | pH 6.5, 25 °C, NaCl 150 mM | – | ΔH | -11.1 kcal/mol |
| F10 activated, mature, active site blocked (Homo sapiens) | PROCR (Homo sapiens, UniProt Q9UNN8) | cell surface binding, cell surface binding ELISA | EA.hy926 | 3 h, 4 °C | – | EC50 | 30 nM |

A few entries again:
| Substance | partner | assay | test system | conditions | how to read | quantity | result |
| --- | --- | --- | --- | --- | --- | --- | --- |
| MMP2 fragment R252A/F297A (Homo sapiens) | COL1A1/COL1A2 denatured, gelatin (Homo sapiens) | DQ-gelatin fluorescence | – | 10 nM, 25 °C | higher = faster hydrolysis | hydrolysis rate | 0.14 RFU/s |
| fabF K65A/R68A/K69A (Escherichia coli) | acpP C12-acylated | holo-AcpP formation, HPLC | – | 10 µM, together with: malonyl-CoA | – | condensation rate | 0.13 min⁻¹ |
